Results pooled from the literature.
Compare with care: the assays were run in different laboratories. Converted amounts (≈) assume the structure as drawn.
UniProt Q14164, sequence (whole entry, looked up): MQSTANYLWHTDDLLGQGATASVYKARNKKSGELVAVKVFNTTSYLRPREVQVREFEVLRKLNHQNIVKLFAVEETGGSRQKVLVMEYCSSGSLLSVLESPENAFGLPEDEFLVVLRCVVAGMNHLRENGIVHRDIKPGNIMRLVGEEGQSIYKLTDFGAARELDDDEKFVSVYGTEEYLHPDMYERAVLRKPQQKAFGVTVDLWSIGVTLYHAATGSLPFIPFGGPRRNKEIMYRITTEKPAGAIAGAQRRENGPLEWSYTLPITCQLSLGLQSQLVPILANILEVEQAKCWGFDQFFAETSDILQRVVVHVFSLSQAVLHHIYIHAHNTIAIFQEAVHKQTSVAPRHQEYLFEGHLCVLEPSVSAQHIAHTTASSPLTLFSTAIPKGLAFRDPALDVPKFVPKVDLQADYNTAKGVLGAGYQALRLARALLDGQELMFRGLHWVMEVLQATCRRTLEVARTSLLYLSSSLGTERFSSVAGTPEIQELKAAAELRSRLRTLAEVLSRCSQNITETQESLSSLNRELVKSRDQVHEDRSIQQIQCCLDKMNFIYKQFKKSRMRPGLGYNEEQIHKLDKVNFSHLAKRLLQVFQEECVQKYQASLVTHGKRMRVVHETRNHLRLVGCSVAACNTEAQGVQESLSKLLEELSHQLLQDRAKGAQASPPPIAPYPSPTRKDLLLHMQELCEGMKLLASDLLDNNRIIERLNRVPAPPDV

C#Cc1cccc(O)c1C=NNC(=O)c1ccc(Br)cc1Br — MIC80 (Candida albicans; microbial growth; pH 7.4): 0.5 µg/mL
C[C@@H]1[C@H](O)[C@@H](C)/C=C/C=C/C=C/C=C/C=C/C=C/C=C/[C@H](O[C@@H]2O[C@H](C)[C@@H](O)[C@H](N)[C@@H]2O)C[C@@H]2O[C@](O)(C[C@@H](O)C[C@@H](O)[C@H](O)CC[C@@H](O)C[C@@H](O)CC(=O)O[C@H]1C)C[C@H](O)[C@H]2C(=O)O — MFC (Candida albicans; microbial killing, broth dilution; 56214; 48 h): 2 µM
O=C(/C=C/c1ccco1)Nc1ncccn1 — MIC80 (Candida albicans; microbial growth; 48 h): 25 µM
Cc1c2ccncc2c(C)c2c1[nH]c1ccccc12 — MIC (Candida albicans; microbial growth, broth dilution; SN152; 24 h): 128 µg/mL (≈ 520 µM)
C[C@@H]1C[C@@H]([C@H](O)CC2CC(=O)NC(=O)C2)C(=O)[C@@H](C)C1 — MIC (Candida albicans; microbial growth, broth dilution; ATCC10 ATCC10231): 14 µg/mL (≈ 49.8 µM)
[2H]c1c([2H])c([C@]2([2H])CCCN2C(=O)C(C)(C)Oc2ccc3cn[nH]c3c2)c([2H])c([2H])c1C([2H])([2H])[2H] — remaining binding (IKBKE (Homo sapiens, UniProt Q14164); binding, competition with immobilised ligand; 1 µM): 81%
C[C@@H]1C[C@@H]([C@H](O)CC2CC(=O)NC(=O)C2)C(=O)[C@@H](C)C1 — MIC (Candida albicans; microbial growth, broth dilution; ATCC10231): 3.12 µg/mL (≈ 11.1 µM)
OC(Cn1cncn1)(Cn1cncn1)c1ccc(F)cc1F — MFC (Candida albicans; microbial killing, broth dilution; SP3931; 48 h): > 64 µM
CC[C@H](C)C[C@H](C)CCCCCCCCC(=O)N[C@H]1C[C@@H](O)[C@@H](NCCN)NC(=O)[C@@H]2[C@@H](O)CCN2C(=O)[C@H]([C@H](O)CCN)NC(=O)[C@H]([C@H](O)[C@@H](O)c2ccc(O)cc2)NC(=O)[C@@H]2C[C@@H](O)CN2C(=O)[C@H]([C@@H](C)O)NC1=O — MFC (Candida albicans; microbial killing, broth dilution; ATCC10231; 48 h): 2 µg/mL
C#Cc1ccc(C(=O)NN=Cc2c(O)cccc2C#C)cc1 — MIC80 (Candida albicans; microbial growth; pH 7.4): > 32 µg/mL
COC(=O)C1=CNC=C(C(=O)OC)C1c1ccc(Cl)c([N+](=O)[O-])c1 — IC50 (PFF0160c (Plasmodium falciparum, UniProt Q08210, E182D); enzyme activity, inhibitor, absorbance): 873 nM
C#Cc1ccc(C=NNC(=O)c2cc(Br)cc(Br)c2O)c(O)c1 — MIC80 (Candida albicans; microbial growth; pH 7.4): 2 µg/mL
CC(=O)c1c(Cc2ccccc2Cl)c[nH]c1C — IC50 (PFF0160c (Plasmodium falciparum, UniProt Q08210); enzyme activity, inhibitor, absorbance): 800 nM

Some of these lines once more:
Cc1c2ccncc2c(C)c2c1[nH]c1ccccc12 — MIC (Candida albicans; microbial growth, broth dilution; SN152; 24 h): 128 µg/mL (≈ 520 µM)
